Measured values of several laboratories.
Compare with care: the assays were run in different laboratories. Numbers after ± are the reported error. Values after ≈ are worked out from the molar mass of the structure shown.

For `CCOc1c([C@H](C)n2nc(C)c3c(N)ncnc32)cc(Cl)c(F)c1[C@@H]1CNC(=O)C1`, “half-life geometric mean” read 9.3 ± 0.979 h (patients with DLBCL, plasma; oral, 20 mg, day 15, monotherapy).
For `Cc1ccc(-c2cc(-c3ccc(OCc4ccccc4)cc3)nc3c(N=Nc4ccc(F)cc4)c(N)nn23)cc1`, the MFC/MIC ratio was 2 (Saccharomyces cerevisiae; broth microdilution; ATCC 9763).
`O=C(O)c1cn(Cc2ccc(C(F)(F)F)cc2)c2ccc(Oc3ccccc3)cc2c1=O` gave a CC50 of 9.02 ± 0.28 µM (Jurkat; 72 h).
Under congener production, `CC(C[N+](C)(C)C)OC(N)=O` (stereo not shown) is recorded as “increased” (Campylobacter concisus; 1 other congeners).
For `COc1cc(-c2nc3ccccc3c(=O)n2Nc2ccc([N+](=O)[O-])cc2[N+](=O)[O-])ccc1OCc1cn(CC(=O)Nc2cccc(C)c2C)nn1`, the inhibition was 55.4 ± 5.89% (mushroom tyrosinase; enzyme activity; 40 µM, together with: L-DOPA).
For `O=C(NCc1ccc(OC(F)(F)F)cc1)c1cn(Cc2ccc(F)cc2)c2ccc(Oc3ccccc3)cc2c1=O`, the CC50 was 17.8 ± 0.62 µM (MDA-MB-231; 72 h).
`CCc1nn(C)c2nc(-c3ccc(F)c(C(=O)O)c3)nc(NCc3ccc(F)cc3)c12`: anti-parasitic activity “not toxic” (Cryptosporidium parvum; parasite growth, high-content microscopy; HCT-8, Iowa; concentration not given).
With `COc1cc(/C=N/NC(=S)N/N=C/c2ccc(C)cc2)ccc1Oc1ccnc2cc(Cl)ccc12` the IC50 was 14.8 ± 0.15 µg/mL (≈ 29.3 µM) (human lysosomal acid alpha-glucosidase; inhibitor; together with: pNPG substrate).
`Cc1ccc(N=Nc2c(N)nn3c(-c4ccco4)cc(-c4ccc(OCc5ccccc5)cc4)nc23)cc1` gave an MBC of 62.5 µg/mL (≈ 125 µM) (Escherichia coli; ATCC 25955).
Under congener production, `CCNC(=O)CCC/C=C\C[C@@H]1[C@@H](/C=C/[C@@H](O)CCc2ccccc2)[C@H](O)C[C@@H]1O` is recorded as “increased” (Campylobacter concisus; 1 other congeners).
The Km of `COc1cc(/C=N/NC(=S)NN=Cc2ccc([N+](=O)[O-])o2)ccc1Oc1ccnc2cc(Cl)ccc12` is reported as 4.08 mM (AKR1B1 (Homo sapiens, UniProt P15121); Lineweaver-Burk kinetics; 4.90 µg (IC60)).
`O=C(Nc1cc(-c2ccc(Cl)cc2)[nH]n1)C1CCCCC1` gave a remaining activity of 75% (phosphorylase kinase; enzyme activity; 10 µM).
Under anti-parasitic activity, `CCc1nn(C)c2nc(-c3ccc4c(c3)CNC4=O)nc(NCc3ccc(F)cc3)c12` is recorded as “inactive” (Cryptosporidium parvum; parasite growth, high-content microscopy; HCT-8, Iowa; concentration not given).
The t1/2 of `COCCOc1cnc2ccn([C@H](C)c3nnc4c(F)cc(-c5cnn(C)c5)cn34)c(=O)c2c1` is reported as 9.3 h (patients; oral, 300 mg once daily, day 1, expansion).
The CC50 of `CCOC(=O)C(=CNc1ccc(Oc2ccccc2)cc1)C(=O)OCC` is reported as 76.3 ± 8.57 µM (MDA-MB-231; 72 h).
`COc1ccc(N=Nc2c(N)nn3c(-c4ccc(C)cc4)cc(-c4ccc(OCc5ccccc5)cc4)nc23)cc1` has an MBC of 31.3 µg/mL (≈ 57.9 µM) (Enterococcus faecalis; broth microdilution; MTCC 0459).
For `CCc1nn(C)c2nc(C3=CCC(C(=O)O)CC3)nc(NCc3ccc(F)cc3)c12` (stereo not shown), anti-parasitic activity read “not toxic” (Cryptosporidium parvum; parasite growth, high-content microscopy; HCT-8, Iowa; concentration not given).
`Cc1ccc(N=Nc2c(N)nn3c(-c4ccc(C)cc4)cc(-c4ccc(OCc5ccccc5)cc4)nc23)cc1` has an MBC/MIC ratio of 4 (Enterococcus faecalis; broth microdilution; MTCC 0459).
With `CCc1nn(C)c2nc(-c3ccc4c(c3)COB4O)nc(NCc3ccc(F)cc3)c12` the EC50 was 0.19 µM (Cryptosporidium parvum; parasite growth; HCT-8, Iowa).

Some of these lines once more:
With `COc1cc(/C=N/NC(=S)N/N=C/c2ccc(C)cc2)ccc1Oc1ccnc2cc(Cl)ccc12` the IC50 was 14.8 ± 0.15 µg/mL (≈ 29.3 µM) (human lysosomal acid alpha-glucosidase; inhibitor; together with: pNPG substrate).
`Cc1ccc(N=Nc2c(N)nn3c(-c4ccco4)cc(-c4ccc(OCc5ccccc5)cc4)nc23)cc1` gave an MBC of 62.5 µg/mL (≈ 125 µM) (Escherichia coli; ATCC 25955).
Under congener production, `CCNC(=O)CCC/C=C\C[C@@H]1[C@@H](/C=C/[C@@H](O)CCc2ccccc2)[C@H](O)C[C@@H]1O` is recorded as “increased” (Campylobacter concisus; 1 other congeners).
